Experimental data from different studies.
± gives the spread as reported. ≈ marks a conversion by molar mass, not a printed value.
Organism: Staphylococcus epidermidis

Cc1cc(C)n(C(N)=S)n1 — MBC (broth microdilution, agar subculture; ATCC 12228; 24 h): > 1000 µg/mL
CN[C@H](CC(C)C)C(=O)N[C@H]1C(=O)N[C@@H](CC(N)=O)C(=O)N[C@H]2C(=O)N[C@H]3C(=O)N[C@H](C(=O)N[C@H](C(=O)O)c4cc(O)cc(O)c4-c4cc3ccc4O)[C@H](O)c3ccc(c(Cl)c3)Oc3cc2cc(c3O[C@@H]2O[C@H](CO)[C@@H](O)[C@H](O)[C@H]2O[C@H]2C[C@](C)(N)[C@H](O)[C@H](C)O2)Oc2ccc(cc2Cl)[C@H]1O — MIC (E-test; 24 h): 4 µg/mL (≈ 2.76 µM)
O=C(O)CCN1C(=O)C(=C2C(=O)N(Cc3ccc(F)cc3)c3ccccc32)SC1=S — IC50 (microbial growth; ATCC12228; 6 h): 9.46 µM
Cc1cc(O)n(C(N)=S)n1 — MBC (broth microdilution, agar subculture; ATCC 12228; 24 h): 250 µg/mL (≈ 1590 µM)
CCc1cc(=O)c2c(OCC(O)CN3CCCCC3)c3ccoc3c(OC)c2o1 (centres unmarked) — MIC (broth microdilution; ATCC 35984; 19 h, 35 °C): > 256 µg/mL
CCOC(=O)c1c(N)csc1-c1cn(-c2ccccc2)nc1-c1ccc(C)cc1 — MIC (broth microdilution; clinical urinary isolate; compound gamma-irradiated 20 kGy): 0.123 ± 0.5 µg/mL (≈ 0.305 µM)
CCc1cc(=O)c2c(OCC(O)CN3CCC(C)CC3)c3ccoc3c(OC)c2o1 (centres unmarked) — MIC (broth microdilution; ATCC 12228; 19 h, 35 °C): > 256 µg/mL
O=C(O)CN1C(=O)C(=C2C(=O)N(Cc3ccc(Cl)cc3)c3ccccc32)SC1=S — IC50 (microbial growth; ATCC12228; 6 h): 3.84 µM

Repeated from above:
CCc1cc(=O)c2c(OCC(O)CN3CCCCC3)c3ccoc3c(OC)c2o1 (centres unmarked) — MIC (broth microdilution; ATCC 35984; 19 h, 35 °C): > 256 µg/mL
